Results from different studies.
Numbered parts are unrelated; each lists some results of a single study.

Set 1 — technique: protein-binding microarray; molecule type: double-stranded DNA, one strand shown; medium: in vitro; concentration: 2200 nM top; notes: 60-bp whole probe; added: salmon DNA 0.4 mg/ml; relative to: random background probes; reading: higher = stronger binding
Target: Interferon regulatory factor 7, full length, phosphomimetic (IRF7, Homo sapiens, UniProt Q92985, residues 1-503, S471D/S472D/S475D/S476D/S477D/S483D/S484D/S487D)
UniProt Q92985, sequence (whole entry, unmodified, looked up): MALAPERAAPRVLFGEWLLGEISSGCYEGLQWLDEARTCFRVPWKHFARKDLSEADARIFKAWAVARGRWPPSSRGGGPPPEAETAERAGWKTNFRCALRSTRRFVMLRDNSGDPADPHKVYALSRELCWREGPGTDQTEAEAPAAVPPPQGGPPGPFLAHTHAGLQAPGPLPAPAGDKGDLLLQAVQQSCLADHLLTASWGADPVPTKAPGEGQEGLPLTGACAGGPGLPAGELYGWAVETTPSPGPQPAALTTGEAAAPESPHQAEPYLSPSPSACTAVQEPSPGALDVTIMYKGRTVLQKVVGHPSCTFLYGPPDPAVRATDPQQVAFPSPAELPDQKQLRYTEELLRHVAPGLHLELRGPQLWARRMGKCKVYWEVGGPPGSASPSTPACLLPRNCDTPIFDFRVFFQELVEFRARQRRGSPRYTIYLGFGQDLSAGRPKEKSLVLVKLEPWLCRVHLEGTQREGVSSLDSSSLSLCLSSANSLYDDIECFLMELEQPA
| Sequence | fitted relative affinity |
| --- | --- |
| GCCTAGCACTGGTCTCTAGTTAGAGAACTGTGCTAGGTCTTGATTCGCTTGACGCTGCTG | 0.15 z-score |
| GCCTAGCACGACGGTCTCCTTTTCCTAACGTGCTAGGTCTTGATTCGCTTGACGCTGCTG | 1.52 z-score |
| GCCTAGCACGAAGGTCTCGGACTGGGGACGTGCTAGGTCTTGATTCGCTTGACGCTGCTG | -0.559 z-score |
| GCCTAGCACTGTCCTTTTCTTTACTGATGGTGCTAGGTCTTGATTCGCTTGACGCTGCTG | 2.41 z-score |

Set 2 — technique: protein binding microarray; molecule type: double-stranded DNA, one strand shown; medium: in vitro; concentration: not given; relative to: not given; reading: higher = stronger binding
Target: Histone acetyltransferase KAT6A, winged helix 1, GST fusion (KAT6A, Homo sapiens, UniProt Q92794, residues 1-85)
Notes: 8-mer, flanks averaged, mean of 2 arrays, mostly near background
Residues (chain): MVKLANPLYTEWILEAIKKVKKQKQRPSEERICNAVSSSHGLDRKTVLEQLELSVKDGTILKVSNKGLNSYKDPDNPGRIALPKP
| Sequence | E-score |
| --- | --- |
| GTCACCAA | -0.217 |
| CCCCCATA | -0.0437 |
| GGCCGGCA | 0.414 |
| AAACGAAG | -0.142 |

Set 3 — technique: aptamer microarray, sandwich; molecule type: DNA with 2'F-ANA; medium: in vitro; concentration: 200 nM; added: Cy3 exosite-II aptamer, 400 nM; reading: higher = stronger binding
Target: Prothrombin, mature alpha-thrombin (F2, Homo sapiens, UniProt P00734)
Notes: whole 15-mer aptamer, many near background
| Sequence | mean fluorescence intensity [a.u.] |
| --- | --- |
| GGTTGGTGTGGTTGG (2'F-ANA at 2 4 9 10 12 13) | 99.2 |
| GGTTGGTGTGGTTGG (2'F-ANA at 2 3 7 8 10 11 12 14 15) | 240 |
| GGTTGGTGTGGTTGG (2'F-ANA at 1 2 3 4 6 8 11 12 15) | 277 |

Single results of other studies
| Molecule | target | test | system | setting | how to read | endpoint | result |
| --- | --- | --- | --- | --- | --- | --- | --- |
| PhoQ, residues 284 288 289 292 302 303 SVHLDV | PhoP, residues 12 14 15 18 19 NNFVT (Escherichia coli, UniProt P23836) | Sort-seq, refers to: YFP reporter | E. coli | PhoQ-PhoP variant library, added: 10 µM Mg2+ | relative to: high Mg2+ state, higher = stronger signaling | fold induction | 5.53 |
